Measurements of several laboratories.
Lines come from different studies, so protocols differ. ± marks the error that the study gave.
Organism: Acinetobacter baumannii

CC(C)C[C@H](NC(=O)[C@H](Cc1ccc(O)cc1)NC(=O)[C@@H]1CCCN1C(=O)[C@H](CCCNC(=N)N)NC(=O)[C@@H]1CCCN1C(=O)[C@H](CCCCN)NC(=O)[C@H](CC(=O)O)NC(=O)[C@@H]1CCCN1C(=O)[C@H](CCCNC(=N)N)NC(=O)C1(N)CCCCC1)C(=O)N1CCC[C@H]1C(=O)N[C@@H](CCCNC(=N)N)C(=O)N1CCC[C@H]1C(=O)N[C@@H](CCCNC(=N)N)C(=O)N1CCC[C@H]1C(=O)N1CCC[C@H]1C(=O)N[C@@H](CCCNC(=N)N)C(=O)N1CCC[C@H]1C(=O)N[C@H](C(=O)N[C@@H](CCCNC(=N)N)C(=O)N[C@@H](CSc1c(F)c(F)c(SC[C@H](NC(=O)[C@H](CCCNC(=N)N)NC(=O)[C@@H](NC(=O)[C@@H]2CCCN2C(=O)[C@H](CCCNC(=N)N)NC(=O)[C@@H]2CCCN2C(=O)[C@@H]2CCCN2C(=O)[C@H](CCCNC(=N)N)NC(=O)[C@@H]2CCCN2C(=O)[C@H](CCCNC(=N)N)NC(=O)[C@@H]2CCCN2C(=O)[C@H](CC(C)C)NC(=O)[C@H](Cc2ccc(O)cc2)NC(=O)[C@@H]2CCCN2C(=O)[C@H](CCCNC(=N)N)NC(=O)[C@@H]2CCCN2C(=O)[C@H](CCCCN)NC(=O)[C@H](CC(=O)O)NC(=O)[C@@H]2CCCN2C(=O)[C@H](CCCNC(=N)N)NC(=O)C2(N)CCCCC2)C(C)C)C(=O)NN)c(F)c1F)C(=O)NN)C(C)C — MIC (bacterial growth; ATCC 19606, 100% Mueller-Hinton broth; 90 min, 37 °C, strain ATCC 19606): 6.5 ± 0.1 µg/mL
CCn1c(-c2ccc(OC)cc2)c(-c2ccc(OC)cc2)n(Cc2c(C)cc(C)cc2C)c1=[Se+][Au-][P+](c1ccccc1)(c1ccccc1)c1ccccc1.[Cl-] — MIC (broth microdilution; carbapenem-resistant; 24 h): 40 µM
CCCCCCCC[C@H]1NC(=O)[C@H](CCN)NC(=O)[C@@H](NC(=O)[C@H](CCN)NC(=O)[C@@H](NC(=O)[C@H](CCN)NC(=O)c2ccc(-c3ccccc3)cc2)[C@@H](C)O)CCNC(=O)[C@H]([C@@H](C)O)NC(=O)[C@H](CCN)NC(=O)[C@H](CCN)NC(=O)[C@H](CC(C)C)NC1=O — MIC (ATCC 19606, CaMHB; 18 h, 37 °C): 4 µg/mL
CC(C)C[C@@H]1NC(=O)[C@@H](CC(C)C)NC(=O)[C@H](CCN)NC(=O)[C@@H](NC(=O)[C@H](CCN)NC(=O)[C@@H](N)[C@@H](C)O)CCNC(=O)[C@H]([C@@H](C)O)NC(=O)[C@H](CCN)NC(=O)[C@H](CCN)NC1=O — MIC (broth microdilution; multidrug-resistant, CAMHB with 0.002% polysorbate-80; 16 h, 37 °C): > 64 µg/mL
C[C@@H](N)[C@H](O)CCCCCCCC(=O)CCCCCCCCCCCCCC[C@@H](O[C@@H]1O[C@H](CO)[C@H](O)[C@H](O)[C@H]1O)[C@H](N)CO — MIC (microbial growth, resazurin; ATCC19606; 6 h): 14.7 µM
CC[C@H](C)[C@H](NC(=O)[C@H](CCCCNC(=N)N)NC(=O)[C@H](CC(N)=O)NC(=O)[C@H](CC(C)C)NC(=O)[C@H](Cc1ccccc1)NC(=O)[C@H](CCCCNC(=N)N)NC(=O)[C@H](CCCCNC(=N)N)NC(=O)[C@H](CC(C)C)NC(=O)[C@H](CC(C)C)NC(=O)[C@H](CCCCNC(=N)N)NC(=O)[C@H](CCCCNC(=N)N)NC(=O)[C@H](CC(C)C)NC(=O)CNC(C)=O)C(=O)N[C@@H](CCCCNC(=N)N)C(=O)N[C@@H](CCCCNC(=N)N)C(N)=O — MIC (bacterial growth, broth microdilution; multidrug-resistant): 6.25 µM
CC(C)C[C@@H]1NC(=O)[C@@H](Cc2ccccc2)NC(=O)[C@H](CCN)NC(=O)[C@@H](NC(=O)[C@H](CN)NC(=O)[C@@H](NC(=O)CC(CN)C2CCCCC2)[C@@H](C)O)CCNC(=O)[C@H]([C@@H](C)O)NC(=O)[C@H](CCN)NC(=O)[C@H](CCN)NC1=O (stereo partly drawn) — MIC (broth microdilution; NCTC 13424 OXA-23 producer, cation-adjusted Mueller-Hinton broth): 0.25 µg/mL
CC[C@@H](C)[C@@H](NC(=O)[C@@H](C)NC(=O)[C@@H](CCCCN)NC(=O)[C@@H](CC(C)C)NC(=O)[C@@H](C)NC(=O)[C@H](NC(=O)[C@@H](Cc1c[nH]cn1)NC(=O)[C@@H](CC(C)C)NC(=O)[C@H](NC(=O)[C@H](NC(=O)[C@@H](CCCCN)NC(=O)[C@@H](CCCCN)NC(=O)[C@@H](C)NC(=O)[C@@H](CO)NC(=O)[C@@H](CCCCN)NC(=O)[C@@H](Cc1ccccc1)NC(=O)[C@H](NC(=O)[C@@H](CCCCN)NC(=O)[C@@H](CC(C)C)NC(=O)[C@@H](Cc1ccccc1)NC(=O)[C@@H](CO)NC(=O)[C@@H](CCCCN)NC(=O)[C@@H](Cc1c[nH]c2ccccc12)NC(=O)[C@@H](CCCCN)NC(C)=O)[C@H](C)O)[C@H](C)O)C(C)C)[C@H](C)O)C(=O)N[C@H](CO)C(=O)N[C@H](CO)C(N)=O — MIC (884, Mueller-Hinton broth; 24 h, 37 °C): 1.5 µM
CC(C)C[C@H](NC(=O)[C@H](CCCCN)NC(=O)[C@H](CCCCNC(=O)[C@H](CC(C)C)NC(=O)[C@H](CCCCN)NC(=O)[C@H](CCCCNC(=O)[C@H](CC(C)C)NC(=O)[C@H](CCCCN)NC(=O)[C@H](CCCCNC(=O)[C@H](CC(C)C)NC(=O)[C@@H](N)CCCCN)NC(=O)[C@H](CC(C)C)NC(=O)[C@@H](N)CCCCN)NC(=O)[C@H](CC(C)C)NC(=O)[C@H](CCCCN)NC(=O)[C@H](CCCCNC(=O)[C@H](CC(C)C)NC(=O)[C@@H](N)CCCCN)NC(=O)[C@H](CC(C)C)NC(=O)[C@@H](N)CCCCN)NC(=O)[C@H](CC(C)C)NC(=O)[C@H](CCCCN)NC(=O)[C@H](CCCCNC(=O)[C@H](CC(C)C)NC(=O)[C@H](CCCCN)NC(=O)[C@H](CCCCNC(=O)[C@H](CC(C)C)NC(=O)[C@@H](N)CCCCN)NC(=O)[C@H](CC(C)C)NC(=O)[C@@H](N)CCCCN)NC(=O)[C@H](CC(C)C)NC(=O)[C@H](CCCCN)NC(=O)[C@H](CCCCNC(=O)[C@H](CC(C)C)NC(=O)[C@@H](N)CCCCN)NC(=O)[C@H](CC(C)C)NC(=O)[C@@H](N)CCCCN)C(N)=O — MIC (broth microdilution; ATCC 19606; 37 °C): 4 µg/mL
